# Measurements collected from several papers.
# Every numbered part comes from another study and shows a few of its results, in no order.

# Set 1
# Target: Interferon regulatory factor 7, full length, phosphomimetic (IRF7, Homo sapiens, UniProt Q92985, residues 1-503, S101K/S471D/S472D/S475D/S476D/S477D/S483D/S484D/S487D)
# Method: protein-binding microarray
# Form: double-stranded DNA, one strand shown
# Matrix: in vitro
# Concentration: 250 nM
# Notes: 60-bp whole probe
# Together with: salmon DNA 0.4 mg/ml
# Reference: random background probes
# Reading: higher = stronger binding
# Constant ends, left off below: GCCTAGCAC … GTCTTGATTCGCTTGACGCTGCTG
# Residues (chain): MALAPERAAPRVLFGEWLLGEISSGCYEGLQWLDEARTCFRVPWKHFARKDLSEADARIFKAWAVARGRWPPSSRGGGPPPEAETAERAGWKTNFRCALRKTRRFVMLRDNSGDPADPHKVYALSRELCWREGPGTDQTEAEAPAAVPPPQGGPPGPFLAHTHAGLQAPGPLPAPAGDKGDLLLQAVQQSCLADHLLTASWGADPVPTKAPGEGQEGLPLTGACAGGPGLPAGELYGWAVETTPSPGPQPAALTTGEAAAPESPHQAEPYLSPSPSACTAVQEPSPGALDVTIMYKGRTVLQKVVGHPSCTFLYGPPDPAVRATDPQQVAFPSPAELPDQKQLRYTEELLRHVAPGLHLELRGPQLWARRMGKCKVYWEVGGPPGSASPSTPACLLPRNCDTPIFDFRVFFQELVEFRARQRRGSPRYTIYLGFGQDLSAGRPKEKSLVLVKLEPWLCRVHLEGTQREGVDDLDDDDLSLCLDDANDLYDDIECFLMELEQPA
Oligonucleotide,log fluorescence
GACGGTTTCCTTTCCCCGACGTGCTAG,5.25 z-score
TCATATATAATATATATTACTGTGCTA,0.536 z-score
TTCATTATTGTCTTCCCCATGTGCTAG,1.04 z-score
GACGAACTGGGGACTAGAGACGTGCTA,-0.252 z-score
TTAGGCCTGGGTCTCGGTTAGTGCTAG,1.29 z-score
GACGGACTGGGTAACGGGACGTGCTAG,-0.579 z-score
TCAACACTAATTTTTACACTGTGCTAG,0.279 z-score
TTAGATTTCAGTTGCGATTAGTGCTAG,1.71 z-score
ATTCATATATATATGAAAAAGTGCTAG,0.837 z-score
TCAGTTTTTACTTTCTGACTGTGCTAG,1.31 z-score
TCAGAACTGGGGTTTCGATTAGTGCTA,6 z-score
TTAGAGTTCAGTTTCGATTAGTGCTAG,8.39 z-score
TTAGGTATCGGTATCGGATAGTGCTAG,1.89 z-score
GACGAACTGGGTTATCGAGACGTGCTA,-0.511 z-score
ATTGCTTTCTCTTTCACTACGTGCTAG,1.54 z-score
GACGATATCGGGTTTCGAGTCGTGCTA,6.23 z-score
TTAGGTTTAGGTTTCGGTTAGTGCTAG,8.14 z-score
TCATGTTTACAGATGTTACTGTGCTAG,0.503 z-score
TTAGGTCTCCTACTGCTTTCGTGCTAG,-0.303 z-score
GTCGAACTGGGGTATCGAGACGTGCTA,-0.062 z-score
GTTACTTTCTACTTCTCTTTGTGCTAG,2.36 z-score
GACGGCTTCGGTTTCGGGACGTGCTAG,4.01 z-score
TGGCCTCTAGGTTTTCTGAAGTGCTAG,-0.258 z-score
GACGAACTGGGGACCGGAGACGTGCTA,-0.591 z-score
GACGGACTGCTACTGGTGACGTGCTAG,-0.751 z-score

# Set 2
# Target: RING finger protein unkempt homolog, zinc fingers 1-6, GST-SBP tag (UNK, Homo sapiens, UniProt Q9C0B0, residues 30-357)
# Chain of UniProt Q9C0B0 (30-357, looked up): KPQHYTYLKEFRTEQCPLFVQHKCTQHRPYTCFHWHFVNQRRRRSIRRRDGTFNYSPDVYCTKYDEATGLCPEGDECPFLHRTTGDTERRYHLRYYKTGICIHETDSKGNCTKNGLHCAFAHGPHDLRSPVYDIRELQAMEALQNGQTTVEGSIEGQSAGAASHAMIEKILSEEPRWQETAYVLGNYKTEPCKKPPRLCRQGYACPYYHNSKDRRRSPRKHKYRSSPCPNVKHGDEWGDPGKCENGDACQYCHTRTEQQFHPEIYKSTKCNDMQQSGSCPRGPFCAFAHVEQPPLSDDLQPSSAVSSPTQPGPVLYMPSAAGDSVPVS
# Method: RNA Bind-n-Seq
# Form: RNA
# Matrix: in vitro
# Concentration: not given
# Notes: RNA with constant flanks, human and mouse sites, ends assumed
# Reference: input RNA pool
# Reading: higher = stronger binding
# Constant ends, left off below: GGGAGUUCUACAGUCCGACGAUC … CAACAGAGGAUUGAGCAUCA
Oligonucleotide,bound/input enrichment
AAGUUAAACCAAUAGUAUAGAAAGCCUAAGAAUGAACACUGAUUGGACAUACUCACAGAAAUUAAGGGAAAAACACAUAUUGUAAAAUUCCUGUCAAUGUUUGAGUAGAAUACAGAAGUA,1.61 ratio
AUGCAAACUUCAAAUCUGGAUGUGAAUAAUAAUAUUUUUAUUAUAGUAUAAUCCAGGUGAGUUUAUAGAAUUUGUGUUUUGUGCUUAUAAACUGUCACCUUCUGAUACUUUUCUUCAUCC,0.547 ratio
GAUCAGAAUGGAAUGACGCCUUUAAUGUGGGCAGCAUAUAGAACACAUAGUGUGGAUCCAACUAGAUUGCUUUUAACAUUCAAUGUUUCAGUUAACCUUGGUGACAAGUAUCACAAAAAC,0.557 ratio
AAAAGCAUUAAACACAGCACAGCAGCCCCUAGCCCAGAUCCCUAAGUUCCUAGUGGCAGCAUUUAUCAAUGUAAGAACAAGAAUACUUUCUGUACUGGUAUCAGCUUCGUCCUCAAAGCU,0.487 ratio
GGACACUGUGUACACAUGCGGGGAUUACCUUACAGAGCUACUGAGAAUGACAUUUAUAAUUUUUUUUCACCGCUCAACCCUGUGAGAGUACACAUUGAAAUUGGUCCUGAUGGCAGAGUA,0.828 ratio
UGUAGCCUUUAUUAAACAGAUCAUGUAUUCUGAUCUCUUGCUGCAGCCACAGUGCAGCUCCAUGUAAACCUACAGGCCAAACCAUUUGUAUCCGGCAUCACUUACUAACACACAACAUGU,0.311 ratio
GAUCAUGAACCACCAUCAGAAAUGAAGAUGAGAUUACCCAGACGAGCCAAAACAGCUGCGCUACAGAAAAGUAAACUUAACCUUGCAGAGUUCCUUAAUGAAGAUACAAGUUAAGAGAGC,0.251 ratio
CUUCUCUCCUUGCCCCCCGCCCUCAUGGGUCCUAGCCCUUCCCUGAGUGCGGGCUGAGGCCAGAGUCACCUUUUCUGUGGCUGGCUCUACCUUCCUGUCCCUGAGGUUAAACGGUGCCCA,0.159 ratio
CCCUGGGCCUGCCCCUUGCCACCAACCUAACUGUGAGUGUAGGUGCCCCCCUCAGUCUCCCUUCUGCCGUAGGACCAACAACACCCAGGUUUGGAGAUUGAAAGAAGGGGAGGCCUAGGA,0.203 ratio
GCUUAUAAAAUCAAAUAUCCAGAGAACUUCUUUCUCUUAAGAGGAAACCAUGAGUGUGCUAGCAUCAAUCGCAUUUAUGGAUUCUAUGAUGAAUGCAAACGAAGAUUUAAUAUUAAAUUG,0.284 ratio
AUAAGUUAUAAUUUCUGUUCACUUUGUAUUUGUUCAGUAUGCAAAGUGUGUCACCCUUUCUAGCUGAAUUCAAUUCCCACGUAGACUCUUAUUUUAUAGGACGAAUGCCAAAUUGCAGCU,10.3 ratio

# Set 3
# Target: Histone acetyltransferase KAT6A, both winged helices, GST fusion (KAT6A, Homo sapiens, UniProt Q92794, residues 1-181)
# Method: protein binding microarray
# Form: double-stranded DNA, one strand shown
# Matrix: in vitro
# Concentration: not given
# Notes: 8-mer, flanks averaged, mean of 2 arrays, mostly near background
# Reference: not given
# Reading: higher = stronger binding
# Residues (chain): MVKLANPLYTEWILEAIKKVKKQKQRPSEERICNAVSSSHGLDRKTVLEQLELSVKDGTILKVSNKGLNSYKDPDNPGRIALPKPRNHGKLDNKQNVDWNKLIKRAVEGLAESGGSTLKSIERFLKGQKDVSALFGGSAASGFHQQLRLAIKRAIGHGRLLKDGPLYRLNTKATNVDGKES
Oligonucleotide,E-score
TCTCGTCA,-0.121
GACCGCAA,0.158
AAGTTTAC,-0.0478
AAACCCAT,-0.101
AACGCCAC,0.0105
GGTGGTCA,-0.0165
CAACACAA,-0.21
AGAGATGA,-0.131
TGTTTGAA,-0.164
AGTGGAGA,-0.168
CATCTCAG,-0.124
ATGGATAG,-0.132
AACGCGAA,0.0782
ATCCCCTA,-0.258
ACATGATG,-0.093
AGATAGAT,-0.116
ATTGGCTG,-0.194
ATGGCACC,0.0531
CCTAGACC,-0.0749
GCCGTGCA,0.221
AAAGCTTC,0.0479
CGAGCTTA,-0.101

# Set 4
# Target: Transcriptional repressor CTCF (CTCF, Homo sapiens, UniProt P49711, residues 1-727, full length assumed)
# Chain of UniProt P49711 (whole entry, looked up): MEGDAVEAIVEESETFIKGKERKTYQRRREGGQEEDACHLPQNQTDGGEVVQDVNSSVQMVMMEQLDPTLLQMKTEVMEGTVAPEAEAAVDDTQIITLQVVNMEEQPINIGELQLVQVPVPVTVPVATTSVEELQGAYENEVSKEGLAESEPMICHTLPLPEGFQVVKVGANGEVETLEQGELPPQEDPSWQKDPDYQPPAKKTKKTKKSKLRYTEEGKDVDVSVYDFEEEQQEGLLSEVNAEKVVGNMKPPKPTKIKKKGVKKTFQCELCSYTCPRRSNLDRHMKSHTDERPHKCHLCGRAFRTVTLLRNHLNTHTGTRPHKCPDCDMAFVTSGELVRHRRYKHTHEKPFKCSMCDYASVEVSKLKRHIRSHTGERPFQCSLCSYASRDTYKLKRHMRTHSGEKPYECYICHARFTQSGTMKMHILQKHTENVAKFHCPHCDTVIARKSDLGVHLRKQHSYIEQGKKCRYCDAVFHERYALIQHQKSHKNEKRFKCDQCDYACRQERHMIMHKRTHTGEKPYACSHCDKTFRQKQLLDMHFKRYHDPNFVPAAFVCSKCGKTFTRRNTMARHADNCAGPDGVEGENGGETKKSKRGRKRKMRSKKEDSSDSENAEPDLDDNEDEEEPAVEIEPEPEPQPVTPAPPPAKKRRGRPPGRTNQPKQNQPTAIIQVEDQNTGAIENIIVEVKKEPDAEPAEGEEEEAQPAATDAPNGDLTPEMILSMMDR
# Method: protein-binding microarray
# Form: double-stranded DNA, one strand shown
# Matrix: in vitro
# Concentration: not given
# Notes: k-mer, scored over probes, only values ≥0.25
# Reading: higher = stronger binding
Oligonucleotide,E-score
ATATAACA,0.369
TCATTACA,0.277
ACAGGTAT,0.267
ACAATTAA,0.269
AATTAATA,0.379
TATGTGAA,0.358
CATATAAA,0.364
AGAGTTAA,0.264
GTACTGCA,0.25
GCCCCCTA,0.43
AATGTTTG,0.271
ATTATATA,0.34
ATTAACGA,0.266
ATACAGTG,0.337
AACCATTA,0.293
AAAGTATC,0.279
AATGCGCA,0.458
CACTGCGC,0.319
AATACAAT,0.272
ATATGTGA,0.361
CGCGAGTA,0.29
AACATAAA,0.301
AGGGCGCA,0.338

# Set 5
# Target: Sal-like protein 4, full length isoform B (SALL4, Homo sapiens, UniProt Q9UJQ4-2, residues 1-616)
# Method: universal PBM
# Form: double-stranded DNA, one strand shown
# Matrix: in vitro
# Concentration: not given
# Notes: 8-mer, flanks averaged, mean of replicates
# Reading: higher = stronger binding
Oligonucleotide,E-score
GAAGTGAA,0.0923
AATAAATA,0.425
ATCCACCG,-0.202
CGCGACAG,-0.209
CCGAGCCG,-0.344
AGAGCAGC,-0.0887
AGAACTTC,-0.168
GTAGCCAA,-0.0171
TCGAAGCA,-0.00747
CGCGTTCA,-0.0551
CGTAACCC,-0.168
AGTGGACG,-0.0429
CAGTACGG,-0.015
AAAAAAAT,0.365
TGACTCAA,-0.0163
ACGATCGT,-0.0208
TCTTGGAA,0.0484
GTATGGAA,0.0746
AACTAAGT,0.0786

# For quick reference, copied from above (set 1):
Oligonucleotide,log fluorescence
TCATGTTTACAGATGTTACTGTGCTAG,0.503 z-score
TCATATATAATATATATTACTGTGCTA,0.536 z-score
GACGGCTTCGGTTTCGGGACGTGCTAG,4.01 z-score
GACGATATCGGGTTTCGAGTCGTGCTA,6.23 z-score
TCAACACTAATTTTTACACTGTGCTAG,0.279 z-score
GACGGTTTCCTTTCCCCGACGTGCTAG,5.25 z-score
